# Experimental data gathered from unrelated publications.
# Each numbered part is a random draw from the data of one study; scales do not carry over between parts. Substitutions count along the parent as printed.

# Study 1 — method: RNA Bind-n-Seq; molecule type: RNA; medium: in vitro; tested at: not given; relative to: input RNA pool; reading: higher = stronger binding
# Target: RING finger protein unkempt homolog, zinc fingers 1-6, GST-SBP tag (UNK, Homo sapiens, UniProt Q9C0B0, residues 30-357)
# Setting: RNA with constant flanks, human and mouse sites, ends assumed
# Shared flanks, not repeated: GGGAGUUCUACAGUCCGACGAUC … CAACAGAGGAUUGAGCAUCA
# Construct (chain): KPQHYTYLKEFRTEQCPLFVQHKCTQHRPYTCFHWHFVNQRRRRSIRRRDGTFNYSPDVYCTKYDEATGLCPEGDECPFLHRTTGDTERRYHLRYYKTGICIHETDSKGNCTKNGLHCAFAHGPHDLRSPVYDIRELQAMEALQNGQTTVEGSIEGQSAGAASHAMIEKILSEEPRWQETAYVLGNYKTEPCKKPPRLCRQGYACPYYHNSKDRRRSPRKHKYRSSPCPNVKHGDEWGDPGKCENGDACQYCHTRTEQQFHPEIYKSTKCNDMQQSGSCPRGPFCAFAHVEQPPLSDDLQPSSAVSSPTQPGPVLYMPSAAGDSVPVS
Oligonucleotide,bound/input enrichment
GACGAGAUCGACGAGUGUGUCCGGAAUAUCGAGCGGUCCCUGUCGGUGGGAAGCGAAUUUUCCAGCGAGCUGGCUGAGAGCGCAUGCGAGGAGAAGCCCAACUUCAACUUCAGCCAGCCC,0.0961 ratio
GACGUGUCUCCUUCUCUGCAUGCCGAGGUGGGUUCUCCACAUUCCACAGAAGUUGAUGACUCCCUGUCCGUUUCUGUGGUGCAAACACCUACCACGUUCCAGGAAACAGAAAUGUCUCCA,0.198 ratio
ACAGAAGUGGAUCGAGCAAGUCACUGGUCGAAGUUUUGGUGACAAAGACUUCCGGACAGGACUAGAAAAUGGGAUCCUCCUUUGCGAGUUGCUGAAUGCUAUAAAGCCAGGACUUGUUAA,0.107 ratio
UGGACUACCAAGCAUGUAGCUGUGUGGCUGAAGGAUGAAGGCUUUUUUGAAUAUGUGGACAUUUUAUGCAAUAAGCACCGACUUGAUGGAAUCACAUUGCUAACAUUGACUGAAUAUGAU,0.235 ratio
CCAGUCCCUCAGUCCCUUCCCGCGCGGUGCGCCGCAGCCGAGGCGAUGCGCCUCAUUCAGAACAUGUGCACCAUCGCCGAGUACCCCGCGCCGGGCAACGCCGCGGCCUCCGACUGCUGU,0.0946 ratio
AUCGUGGAGUAUCAGAAUAAGGGCCGAGCGAACGAGUGCGUCCAGUAUCAGCAUGUGUUACAUAGAAAUCUCAUUUAUUUAGCUACCAUCGCAGACGCCAACACAAGCAGUCUCACAAAG,1.06 ratio
GUCAACAAGGUGGAGUUGCUGGUGAUGAAGGCACUCUCGGUGGGGCUGGUGAGAGGCAGCAUAGACGAGGUGGACAAGCGGGUUCACAUGACGUGGGUGCAGCCGCGAGUGCUGGAUUUG,0.345 ratio
AAGGUGAUAACCAUGUUUGUACAGCGACAGGUGUUUGCUGAGAACAAGGAUGAGAUUGCUUUAGUCCUGUUUGGUACAGAUGGCACUGACAAUCCCCUUUCUGGUGGGGAUCAGUAUCAG,0.163 ratio

# Study 2 — method: RNA Bind-n-Seq; molecule type: RNA; medium: in vitro; tested at: not given; setting: 4-mer, random 30-nt RNA, single round; together with: RocA, ADP, phosphate; relative to: input library; reading: higher = stronger binding
# Target: ATP-dependent RNA helicase DDX3X, helicase core (DDX3X, Homo sapiens, UniProt O00571, residues 132-607)
# Chain of UniProt O00571 (132-607, looked up): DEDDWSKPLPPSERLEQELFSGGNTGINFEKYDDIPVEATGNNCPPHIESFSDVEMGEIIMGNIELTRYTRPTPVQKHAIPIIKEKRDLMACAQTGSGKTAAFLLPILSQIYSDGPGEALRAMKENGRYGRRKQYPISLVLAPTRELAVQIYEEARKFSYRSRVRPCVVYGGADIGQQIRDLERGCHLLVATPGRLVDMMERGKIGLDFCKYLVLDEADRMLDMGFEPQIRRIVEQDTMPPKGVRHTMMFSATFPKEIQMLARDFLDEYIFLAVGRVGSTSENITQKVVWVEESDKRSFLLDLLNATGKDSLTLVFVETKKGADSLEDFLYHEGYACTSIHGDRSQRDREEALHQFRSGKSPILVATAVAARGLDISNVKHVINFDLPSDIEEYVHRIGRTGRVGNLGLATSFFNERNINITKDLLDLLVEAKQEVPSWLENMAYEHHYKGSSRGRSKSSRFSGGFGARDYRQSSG
Oligonucleotide,4-mer enrichment [fold]
UCCG,0.793
AUCA,0.723
CUAC,0.654
CUCG,0.681
CAGU,0.782
CGGU,0.811
CGUA,0.83
ACUG,0.76
GCGC,0.803
AUCG,0.892
CGAA,0.971
CCUU,0.72
CUCA,0.614
GCAA,0.848

# Study 3 — target: MAFF, bZIP domain (human); method: DHFR protein complementation; medium: yeast; relative to: wild-type JUN-FOS pair; reading: higher = stronger binding
# Setting: single substitutions, most at no-binding floor
# Starting sequence: JUN, bZIP domain (human); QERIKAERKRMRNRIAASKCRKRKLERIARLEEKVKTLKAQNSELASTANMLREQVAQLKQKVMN; partner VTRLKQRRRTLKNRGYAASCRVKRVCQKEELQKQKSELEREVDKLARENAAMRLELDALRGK
Variant,binding fitness [natural log]
L45P,-1.5
S43E,-1.18
S43M,-1.48
R30F,-1.28
V56G,-1.46
S47Q,-1.32
Q41L,-1.34
L45D,-1.52
M51E,-1.44
A49T,-1.43
A29S,-1.41
L45Q,-1.45
S43R,-1.46
T48E,-1.3
T37R,-1.39
K39P,-1.52
E32K,-1.46
N42P,-1.55
K39G,-1.49
L45E,-1.55
E44S,-1.48
L38Q,-1.49
L45A,-1.55
E32H,-1.49
S43T,-1.38

# Study 4 — method: protein binding microarray; molecule type: double-stranded DNA, one strand shown; medium: in vitro; tested at: not given; relative to: not given; reading: higher = stronger binding
# Target: Histone acetyltransferase KAT6A, both winged helices, GST fusion (KAT6A, Homo sapiens, UniProt Q92794, residues 1-181)
# Setting: 8-mer, flanks averaged, mean of 2 arrays, mostly near background
# Construct (chain): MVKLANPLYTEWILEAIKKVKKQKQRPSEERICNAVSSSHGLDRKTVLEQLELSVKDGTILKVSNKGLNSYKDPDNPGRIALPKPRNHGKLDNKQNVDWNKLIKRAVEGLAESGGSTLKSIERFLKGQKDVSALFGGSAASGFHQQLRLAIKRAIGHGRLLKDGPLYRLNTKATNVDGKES
Oligonucleotide,E-score
AACAAGTA,-0.145
ATGATCAT,0.0901
AACCTCGG,0.054
GTATAATA,0.00308
CTTAAGTA,-0.0982
ATAGGACA,-0.0685
CAGGGGGA,-0.245
AGCTTACT,-0.139
ACGTCAAA,0.0256
GCACTATA,0.0848
AAAGACCC,-0.0138
ACCCTCCC,0.0416
CCTTACAG,-0.0656
CAGAATGA,-0.0276
TCAGCCGA,0.0576
CCCAAAGG,-0.103
AATAACAA,-0.142
CGATGTGA,-0.00456
CCCGGCGA,0.276
